Results gathered from unrelated publications.
Values joined by “and” are separate records of one study, mostly repeats; a detail may differ.
IGF1R: Insulin-like growth factor 1 receptor (IGF1R, Homo sapiens, UniProt P08069)

`O=C(Cc1ccc(OCc2ccccc2)cc1)NC1(C(=O)O)CCN(C(=O)c2ccc(-c3cccc(Cl)c3)cc2)CC1`: “activity vs control” 87% (Insulin-like growth factor 1 receptor, phosphorylated (IGF1R, Homo sapiens, UniProt P08069); enzyme activity, inhibitor; 10 µM).
The inhibition of `NC(=O)[C@@H](O)C[C@H]1CCc2sc3ncnc(O[C@H]4CC[C@H](N5CCOCC5)CC4)c3c21` is reported as 8% (IGF1R; enzyme activity, inhibitor; 10 µM).
With `Cc1nc2c(F)cc(-c3nc(Nc4ccc(CNC(=O)CCCCCCC(=O)NO)cc4)ncc3F)cc2n1C(C)C` the inhibition was 85% (IGF1R; enzyme activity, inhibitor; 1 µM).
`Cc1cccc(-c2ccc3nc(NC(=O)C4CCCCC4)nn3c2)c1` gave a remaining activity of 97% (IGF1R; enzyme activity, Dundee kinase panel; 10 µM).
`O=C=[N][Ru-4]123([n]4c5ccc(O)cc5c5c6c(c7cc(F)c[n+]1c7c54)C(=O)NC6=O)[S+]1CC[S+]2CC[S+]3CC1` (stereo not shown) gave a remaining activity of 54% (Insulin-like growth factor 1 receptor, activated (IGF1R, Homo sapiens, UniProt P08069); enzyme activity; 100 nM, human enzyme, with: 10 µM ATP; relative to: untreated).
`C=CC(=O)N1CCCC(n2c(=O)c3ncccc3n(Cc3ccc(Oc4ccccc4)cc3)c2=O)C1` (stereo not shown) gave a remaining binding of 94% (IGF1R; cell-free assay, competition with immobilised ligand; 1 µM).
`Cc1cccc(O[C@H]2CCC[C@@H](C(C)CNCc3ccncc3)C2)c1` (relative stereo) has an inhibition of 6% (IGF1R; cell-free assay; 1 µM).
The remaining binding of `C=CC(=O)N1CCc2ccc(-n3c(=O)ccc4cnc5ccc(-c6cnn(C)c6)cc5c43)cc21` is reported as 100% (IGF1R; KINOMEscan; 1 µM; relative to: DMSO control).
For `COc1ccc(O)cc1-c1c[nH]c2ncc(-c3cncc(C(=O)N(C)C)c3)cc12`, the inhibition was -1.65% (IGF1R; binding, competition with immobilised ligand; 0.2 µM).
The inhibition of `COc1cc(OC)c(F)c(/C=C/c2cnc3ccn(S(=O)(=O)c4cn(CCF)cn4)c3n2)c1F` is reported as 9.7% (IGF1R; 10 nM).
`COc1c(OCCCN2CCOCC2)ccc2c1N=C(NC(=O)c1cnc(N)nc1)N1CCN=C21` has a remaining activity of 106% (IGF1R; kinase activity, inhibitor; 1 µM; relative to: untreated control).
The inhibition of `CN1CC[C@@H](COc2cnc(C#N)cc2-c2ccn3nc(NC(=O)C4CC4)cc3c2)C1` is reported as -1% (IGF1R; enzyme activity, inhibitor; 1 µM).
The remaining binding of `COc1c(Cl)cccc1Nc1c(-c2ccncc2C#C[C@@]2(C)CCCN2C(=O)/C=C/CN(C)C)[nH]c2c1C(=O)NCC2` is reported as 98% (IGF1R; cell-free assay, competition with immobilised ligand; 3 µM).
The inhibition of `CCn1cc(C(=O)O)c(=O)c2c(N)c(F)c(NC3CCCCC3)cc21` is reported as 1.6% (IGF1R; kinase activity; 0.1 µM, with: ATP at Km).
`Cc1cnc2nc1Nc1cccc(c1)COC/C=C/COCc1cc(ccc1OCCN1CCOCC1)N2` has a remaining binding of 49% (IGF1R; binding; 0.1 µM).
With `CC(C)=CC1OC(C)(C)C2C=C3C(=O)C(Cl)=CC(O)C3C3C(O)C4OC4C(=O)C132` (stereo not shown) the remaining binding was 91% (IGF1R; cell-free assay, competition with immobilised ligand; 10 µM).
`COc1cc(-n2cc3cc(F)cc(C(N)=O)c3n2)cc(Cl)c1C1CC(O)(CCO)Cc2ccccc21` (stereo not shown) has an inhibition of 0.82% (IGF1R; enzyme activity, inhibitor; 10 µM).
`O=C(O)CCC(=O)c1cccc(NS(=O)(=O)c2c[nH]c3ncccc23)c1` gave a remaining activity of 125% (IGF1R; kinase activity, radiometric; 10 µM).
For `N[C@H]1CC[C@H](Nc2nccc(-c3cccnc3Oc3ccc(NC(=O)NC4CC4)c4ccccc34)n2)CC1`, “log2 LFQ intensity” read 26.7 (IGF1R; kinobead competition pulldown; HEK293/HCT116 lysate mixture; 10 µM, 1 h, 4 °C; lower = stronger competition).
With `Nc1nc(Nc2ccccc2)sc1C(=O)c1ccccc1` the remaining activity was 41% (IGF1R; enzyme activity, inhibitor; 10 µM).
The remaining binding of `Nc1ncc2c(n1)-c1c([nH]c3ccc(C4=CCOCC4)cc13)CCC2` is reported as 100% (IGF1R; binding, competition with immobilised ligand; 1 µM).
For `CNS(=O)(=O)Nc1nccc(Cc2c(C)c3ccc(Oc4ncccc4F)cc3oc2=O)c1F`, the remaining binding was 89% (IGF1R; cell-free assay, competition with immobilised ligand; 10 µM).
`Cc1ccc(-c2c(/C=C(\C#N)C(=O)NC(C)C)n(CCCO)c3ncnc(N)c23)cc1` has a remaining binding of 100% (IGF1R; cell-free assay, competition with immobilised ligand; 1 µM).
With `COCC12C(=O)NC3C4(C(OC)CC1O)C1CC5(O)C(OC)C(O)C(OC(C)=O)(C1C5OC(=O)c1ccccc1)C3(O)C(OC)C24` (stereo not shown) the remaining activity was 102% and 91% (IGF1R; kinase activity, inhibitor, ProQinase kinase profiling; 25 µM; relative to: control).
`CN1CCN(Cc2ccc(NC(=O)c3cccc(C#Cc4cnc(N)c5ncccc45)c3)cc2C(F)(F)F)CC1` gave a remaining binding of 97% (IGF1R; cell-free assay, competition with immobilised ligand; 50 nM).
`COc1ccc(NC(=O)Nc2ccc3c(c2)C(=O)N(C(C)CO)CC(C)C(CN(C)Cc2ccc4c(c2)OCO4)O3)cc1` (stereo not shown) gave a remaining activity of 92% (IGF1R; kinase activity, KinaseProfiler; 0.03 µM, species human; relative to: control).
`Cc1cccc(-c2ccc3nc(NC(=O)C4CCOCC4)nn3c2)c1` gave a remaining activity of 94% (IGF1R; enzyme activity, Dundee kinase panel; 10 µM).
With `C=CC(=O)Nc1cccc(-c2cnc3[nH]cc(C(=O)NC(C)(C)C)c3n2)c1` the inhibition was 3% and 5% (IGF1R; kinase activity; 0.1 µM).
